Measured values collected from several papers.
Each numbered part is a random draw from the data of one study; scales do not carry over between parts.

Block 1 — technique: aptamer microarray, sandwich; form: DNA with 2'F-ANA; medium: in vitro; concentration: 200 nM; together with: Cy3 exosite-II aptamer, 400 nM; direction: higher = stronger binding
Target: Prothrombin, mature alpha-thrombin (F2, Homo sapiens, UniProt P00734)
Notes: whole 15-mer aptamer, many near background
Strand | mean fluorescence intensity [a.u.]
GGTTGGTGTGGTTGG (2'F-ANA at 1 2 4 7 8 9 10 12 14 15) | 52.3
GGTTGGTGTGGTTGG (2'F-ANA at 2 4 9 11 12 14 15) | 102
GGTTGGTGTGGTTGG (2'F-ANA at 2 3 8 10 11 13 14) | 235
GGTTGGTGTGGTTGG (2'F-ANA at 1 2 3 4 5 7 8 10 11 13 14 15) | 47.1

Block 2 — technique: competition protein-binding microarray; form: double-stranded DNA, one strand shown; medium: in vitro; concentration: 2 µM; together with: Cbf1 competitor, 0.05 µM; direction: higher = stronger binding
Target: Phosphate system positive regulatory protein PHO4, full length, GST-tagged (PHO4, Saccharomyces cerevisiae, UniProt P07270, residues 1-312)
Notes: whole 60-bp probe, lowest competitor level
Construct (chain): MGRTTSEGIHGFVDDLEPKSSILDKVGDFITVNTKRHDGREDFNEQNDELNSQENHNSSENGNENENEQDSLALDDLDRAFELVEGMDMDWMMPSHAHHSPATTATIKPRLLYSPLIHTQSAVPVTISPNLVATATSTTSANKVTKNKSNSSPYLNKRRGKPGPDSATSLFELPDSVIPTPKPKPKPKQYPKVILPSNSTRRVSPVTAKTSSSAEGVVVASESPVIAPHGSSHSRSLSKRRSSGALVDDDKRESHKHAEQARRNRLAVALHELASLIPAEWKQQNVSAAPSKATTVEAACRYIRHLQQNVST
Strand | fluorescence intensity [a.u.]
ATTTGCATATTCGACTTCGTGCAAACAGAAATGCGGGTCTTGATTCGCTTGACGCTGCTG | 6530
AAATTACTAAGTTGGATCGTGGGTGACGCCGTATGAGTCTTGATTCGCTTGACGCTGCTG | 8250
CCGCCAAGAGAAATGCTCGTGACTCGTTGGCTCAATGTCTTGATTCGCTTGACGCTGCTG | 7410
AAACAGGGCGGCGTTCCCGTGCGGAAGGTGGTCTGCGTCTTGATTCGCTTGACGCTGCTG | 6260

Block 3 — technique: protein binding microarray; form: double-stranded DNA, one strand shown; medium: in vitro; concentration: not given; baseline: not given; direction: higher = stronger binding
Target: Histone acetyltransferase KAT6A, both winged helices, GST fusion (KAT6A, Homo sapiens, UniProt Q92794, residues 1-181)
Notes: 8-mer, flanks averaged, mean of 2 arrays, mostly near background
Construct (chain): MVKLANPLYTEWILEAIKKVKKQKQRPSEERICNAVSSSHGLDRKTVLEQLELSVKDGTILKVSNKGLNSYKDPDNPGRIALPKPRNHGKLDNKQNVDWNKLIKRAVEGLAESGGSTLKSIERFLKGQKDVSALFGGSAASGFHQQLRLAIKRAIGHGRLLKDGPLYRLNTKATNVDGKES
Strand | E-score
CCATTCAG | -0.129
ACGGCAGG | 0.188
CGTAAGAC | 0.0542
CGCCCACG | 0.142
ACTGATCA | -0.0247
GAGCTCCC | -0.0722
CTTATGGC | -0.0592
ATGAACTC | -0.166
ATAATCAT | -0.0381
GCGTATAC | 0.197
GGCCCGAC | 0.125
TAACTTAA | -0.0924
AATGTAAC | -0.0824
CGAAAGCA | -0.0852
CATAAGGG | -0.108
AGCTCGCG | 0.147
GTATGCAA | -0.0957

Block 4 — technique: protein-binding microarray; form: double-stranded DNA, one strand shown; medium: in vitro; concentration: 250 nM; notes: 60-bp whole probe; together with: salmon DNA 0.4 mg/ml; baseline: random background probes; direction: higher = stronger binding
Target: Interferon regulatory factor 5, full length, phosphomimetic (IRF5, Homo sapiens, UniProt Q13568-2, residues 1-514, K96S/S451D/S453D/S456D/S462D)
Strand | log fluorescence [z-score]
GCCTAGCACGACGATCTGGGGTTTCGAGACGTGCTAGTCTTGATTCGCTTGACGCTGCTG | 0.982
GCCTAGCACGACGGTATCCTACAGCTGACGTGCTAGGTCTTGATTCGCTTGACGCTGCTG | -0.232
GCCTAGCACGACGGTTCCGGTTTCGAGACGTGCTAGGTCTTGATTCGCTTGACGCTGCTG | 4.22

Block 5 — technique: universal PBM; form: double-stranded DNA, one strand shown; medium: in vitro; concentration: 600 nM; direction: higher = stronger binding
Target: Sal-like protein 4, full length isoform A (SALL4, Homo sapiens, UniProt Q9UJQ4, residues 1-1053)
Chain of UniProt Q9UJQ4 (whole entry, looked up): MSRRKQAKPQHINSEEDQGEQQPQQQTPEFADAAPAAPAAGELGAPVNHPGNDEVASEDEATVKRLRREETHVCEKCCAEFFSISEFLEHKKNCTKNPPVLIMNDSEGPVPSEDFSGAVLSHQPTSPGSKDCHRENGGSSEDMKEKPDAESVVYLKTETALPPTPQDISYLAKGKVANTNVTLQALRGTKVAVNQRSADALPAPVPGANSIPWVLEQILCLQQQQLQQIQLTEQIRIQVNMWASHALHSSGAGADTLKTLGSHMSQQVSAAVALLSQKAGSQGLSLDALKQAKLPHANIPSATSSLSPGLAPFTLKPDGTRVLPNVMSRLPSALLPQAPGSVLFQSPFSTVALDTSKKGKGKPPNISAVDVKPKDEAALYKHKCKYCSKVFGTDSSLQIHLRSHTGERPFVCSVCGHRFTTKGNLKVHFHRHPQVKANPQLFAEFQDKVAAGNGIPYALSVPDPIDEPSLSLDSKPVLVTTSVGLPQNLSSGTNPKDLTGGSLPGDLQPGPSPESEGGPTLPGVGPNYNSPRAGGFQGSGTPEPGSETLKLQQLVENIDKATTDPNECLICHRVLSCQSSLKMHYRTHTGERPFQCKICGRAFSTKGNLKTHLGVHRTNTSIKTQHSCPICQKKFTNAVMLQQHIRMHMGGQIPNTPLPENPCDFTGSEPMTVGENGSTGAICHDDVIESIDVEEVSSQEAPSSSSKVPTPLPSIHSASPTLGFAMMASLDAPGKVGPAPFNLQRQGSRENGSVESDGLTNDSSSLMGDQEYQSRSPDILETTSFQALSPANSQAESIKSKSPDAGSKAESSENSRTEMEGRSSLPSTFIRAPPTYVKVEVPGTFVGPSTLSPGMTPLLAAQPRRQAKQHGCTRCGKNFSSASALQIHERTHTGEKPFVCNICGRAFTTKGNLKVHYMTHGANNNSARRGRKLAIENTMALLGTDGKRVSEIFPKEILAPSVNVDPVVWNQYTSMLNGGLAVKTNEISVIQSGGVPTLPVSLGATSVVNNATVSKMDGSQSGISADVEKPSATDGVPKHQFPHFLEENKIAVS
Notes: 8-mer, flanks averaged, mean of replicates
Strand | E-score
CGATATTA | 0.353
AAGCCCAT | -0.119
CGCAAATA | 0.244
AAGGGGAT | -0.00933
CTCCGGTA | -0.0817
CGTATGTC | 0.0218
CGTTTGGC | -0.0869
CAACTCAA | 0.138

Single results of other studies
Substance | target | assay | system | setting | scale | measurement | value
PhoQ, residues 284 288 289 292 302 303 AGHLVA | PhoP, residues 12 14 15 18 19 VHSCL (Escherichia coli, UniProt P23836) | Sort-seq, item: YFP reporter | E. coli | PhoQ-PhoP variant library, together with: 10 µM Mg2+ | baseline: high Mg2+ state, higher = stronger signaling | fold induction | 5.38

Excerpt of the above (block 3):
Strand | E-score
CGTAAGAC | 0.0542
CGCCCACG | 0.142
ACTGATCA | -0.0247
GAGCTCCC | -0.0722
CTTATGGC | -0.0592
